Results pooled from the literature.
± marks the error that the study gave.
folA: Dihydrofolate reductase (folA, Escherichia coli, UniProt P0ABQ4)
rep nsp14: Replicase polyprotein 1ab, nsp14 (rep, Severe acute respiratory syndrome coronavirus 2, UniProt P0DTD1)
ANPEP: Aminopeptidase N (ANPEP, Sus scrofa, UniProt P15145)
Adenosylmethionine-8-amino-7-oxononanoate aminotransferase: Adenosylmethionine-8-amino-7-oxononanoate aminotransferase (Mycobacterium tuberculosis, UniProt P9WQ81)
T1: DNA aptamer; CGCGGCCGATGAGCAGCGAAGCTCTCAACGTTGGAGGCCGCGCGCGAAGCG

Nc1nc(N)c2cc(Sc3cccc(C(F)(F)F)c3)ccc2n1 — Kd (folA; differential scanning fluorimetry; estimate from thermal shift): 6200 ± 1200 nM
C[C@H]1O[C@@H](O[C@H]2[C@@H](O)C[C@H](O[C@H]3[C@@H](O)C[C@H](O[C@H]4CC[C@@]5(C)[C@H](CC[C@@H]6[C@@H]5CC[C@]5(C)[C@@H](C7=CC(=O)OC7)CC[C@]65O)C4)O[C@@H]3C)O[C@@H]2C)C[C@H](O)[C@@H]1O — inhibition (USP51 (Homo sapiens, UniProt Q70EK9); enzyme activity, inhibitor; 5 µM): 25%
Cc1c(S(=O)(=O)N2CCc3nn(C)cc3C2)cc(C(=O)NCc2cccnc2N2CCCC2)n1C — IC50 (rep nsp14; inhibitor): 160 nM
C(=C1c2ccccc2-c2c1ccc1ccccc21)c1cc2c3c(cccc3c1)-c1ccccc1-2 — remaining activity (ANPEP; enzyme activity; 3 µM, 30 min preincubation, undiluted, unit not given; reference: untreated): 0.562 ± 0.001
O=P(O)(O)O[C@H]1O[C@H](CO)[C@@H](O)[C@H](O)[C@H]1O — phosphatase activity (uncharacterized protein (Bacteroides thetaiotaomicron, UniProt Q8A4G9); activator, phosphate release; concentration not given, together with: Mg2+): inactive
O=C(NNC(=NS(=O)(=O)c1ccc(-n2nc(C(F)(F)F)cc2-c2cccs2)cc1)N1CCCC1)c1ccc(Cl)cc1 — remaining activity (ANPEP; enzyme activity; 3 µM, 30 min preincubation, diluted 10-fold, unit not given; reference: untreated): 0.974 ± 0.011
[Mn+2] — relative specific activity (uncharacterized protein (Bacteroides thetaiotaomicron, UniProt Q8A183); phosphatase activity, activator, phosphate release; 5 mM, EDTA-treated enzyme, together with: substrate 20 mM; reference: activity with Mg2+): 0.059
Fc1ccccc1Cc1nc(-c2nc(C(F)(F)F)n[nH]2)cn2ccnc12 — subjects with reproductive-breast TEAEs (healthy human subjects, both sexes; oral, 10 mg, fed): 7.7%
COC(=O)Nc1c(N)nc(-c2nn(Cc3ccccc3F)c3ncc(F)cc23)nc1N — Cmax at steady state (humans, plasma; 10 mg once daily, phase I DDI study, together with: warfarin): 360 ng/mL
OC[C@H]1O[C@@H](O[C@@H]2[C@@H](O)[C@H](O[C@@H]3[C@@H](O)[C@H](O[C@@H]4[C@@H](O)[C@H](O[C@@H]5[C@@H](O)[C@H](O[C@H]6[C@H](O)[C@@H](CO)OC(O)[C@@H]6O)O[C@H](CO)[C@H]5O)O[C@H](CO)[C@H]4O)O[C@H](CO)[C@H]3O)O[C@H](CO)[C@H]2O)[C@H](O)[C@@H](O)[C@@H]1O (some centres unmarked) — ΔH (uncharacterized protein (Bacteroides thetaiotaomicron, UniProt A0A173VPY3); ITC; pH 7.0, 25 °C): -59.3 kcal/mol
[Mg+2] — relative specific activity (uncharacterized protein (Bacteroides thetaiotaomicron, UniProt Q8A183); phosphatase activity, activator, phosphate release; 5 mM, EDTA-treated enzyme, together with: substrate 4 mM; reference: activity with this ion): 1
O=C(c1ccccc1)C1CCNCC1 — ΔTm (Adenosylmethionine-8-amino-7-oxononanoate aminotransferase; thermal stability, differential scanning fluorimetry; 5 mM, holo enzyme; reference: DMSO): 3.6 ± 0.2 °C
CC1COc2ccccc2N1C(=O)C(Cl)Cl (centres unmarked) — intrinsic clearance (cytosolic glutathione S-transferase; substrate depletion; rhesus monkey, male, liver cytosol; 5 µM, pH 7.4, together with: glutathione): 1400 µL/min/mg
Cc1c(S(=O)(=O)N2CCC(C)CC2)cc(C(=O)NCc2nccnc2N2CCCC2)n1C — IC50 (rep nsp14; inhibitor): 52 nM
N#Cc1cc(Cc2ccc3c(ccc4ccccc43)c2C#N)cc2c1ccc1ccccc12 — remaining activity (ANPEP; enzyme activity; 3 µM, 30 min preincubation, diluted 10-fold, unit not given; reference: untreated): 0.989 ± 0.012
Nc1nc(N)c(-c2cccc(C(F)(F)F)c2)c(Cc2cccc(C(F)(F)F)c2)n1 — Kd (folA; differential scanning fluorimetry; estimate from thermal shift): 5200 ± 1300 nM
[Ca+2] — relative specific activity (uncharacterized protein (Bacteroides thetaiotaomicron, UniProt Q8A183); phosphatase activity, activator, phosphate release; 5 mM, EDTA-treated enzyme, together with: substrate 20 mM; reference: activity with Mg2+): 0.025
NC(=O)c1ccc(-c2ccccn2)s1 — ΔTm (Adenosylmethionine-8-amino-7-oxononanoate aminotransferase; thermal stability, differential scanning fluorimetry; 5 mM, holo enzyme; reference: DMSO): 6.3 ± 0.3 °C
N#Cc1ccccc1-c1cc(NCCCN2CCCCC2)c2ccccc2n1 — inhibitory potency (Low molecular weight phosphotyrosine protein phosphatase (Bos taurus, UniProt P11064, N51E/W50Y); concentration not given; reference: wild type): increased
CO/N=C(\C(=O)N[C@@H]1C(=O)N2C(C(=O)O)=C(COC(C)=O)CS[C@H]12)c1csc(N)n1 — MIC (Pseudomonas aeruginosa; clinical isolate RKI-No_628/16): > 16 µg/mL
O=[N+]([O-])c1ccc(O[C@H]2O[C@H](CO)[C@@H](O)[C@H](O)[C@@H]2O)cc1 — kcat (Beta-mannosidase (Bacteroides thetaiotaomicron, UniProt Q8AAK6); substrate, absorbance; pH 5.6, 37 °C, together with: p-nitrophenyl β-D-mannopyranoside 0.125-2 mM): 67 ± 5 s⁻¹
C=C1[C@@H](O)[C@@H]2O[C@]3(CC[C@H](/C=C/[C@@H](C)[C@@H]4CC(C)=C[C@@]5(O[C@H](C[C@@](C)(O)C(=O)O)CC[C@H]5O)O4)O3)CC[C@H]2O[C@@H]1[C@@H](O)C[C@H](C)[C@H]1O[C@@]2(CCCCO2)CC[C@H]1C — Kd (T1, DNA aptamer; microscale thermophoresis; pH 7.5, 25 °C, NaCl 150 mM): 136 nM
COc1ccc(CC(=O)c2ccc(O)cc2O)cc1 — Kd (folA; differential scanning fluorimetry; estimate from thermal shift): 182000 ± 21600 nM
[Co+2] — relative specific activity (uncharacterized protein (Bacteroides thetaiotaomicron, UniProt Q8A4G9); phosphatase activity, activator, phosphate release; 5 mM, EDTA-treated enzyme, together with: substrate 25 mM; reference: activity with Mg2+): 0.0081
N#CCC1CCN(c2nc(Nc3ccc(N4CCC(O)CC4)cc3)c3c(=O)[nH]ncc3n2)CC1 — serum level change (Olink multiplex, refers to: CD163; human, serum; 20 mg, day 15, unit not given; reference: placebo): -1.18
O=P(O)(O)OC[C@H]1OC(O)[C@H](O)[C@@H](O)[C@@H]1O (some centres unmarked) — phosphatase activity (uncharacterized protein (Bacteroides thetaiotaomicron, UniProt Q8A4G9); activator, phosphate release; concentration not given, together with: Mg2+): active
OC[C@H]1O[C@@H](O[C@@H]2[C@@H](O)[C@H](O[C@@H]3[C@@H](O)[C@H](O[C@@H]4[C@@H](O)[C@H](O[C@H]5[C@H](O)[C@@H](CO)OC(O)[C@@H]5O)O[C@H](CO)[C@H]4O)O[C@H](CO)[C@H]3O)O[C@H](CO)[C@H]2O)[C@H](O)[C@@H](O)[C@@H]1O (some centres unmarked) — -TΔS (uncharacterized protein (Bacteroides thetaiotaomicron, UniProt A0A173VPY3); ITC; pH 7.0, 25 °C): 6.98 kcal/mol
O=C[C@@H](O)[C@@H](O)[C@H](O)[C@H](O)COP(=O)(O)O — phosphatase activity (uncharacterized protein (Bacteroides thetaiotaomicron, UniProt Q8A4G9); activator, phosphate release; concentration not given, together with: Mg2+): active
COc1cc([C@@H]2c3cc4c(cc3[C@@H](O[C@@H]3O[C@@H]5CO[C@@H](C)O[C@H]5[C@H](O)[C@H]3O)[C@H]3COC(=O)[C@H]23)OCO4)cc(OC)c1O — linear DNA (TOP2A (Homo sapiens, UniProt P11388); DNA cleavage; 31.25 µM, replicate 2): 14.3%

Some of these lines once more:
Nc1nc(N)c2cc(Sc3cccc(C(F)(F)F)c3)ccc2n1 — Kd (folA; differential scanning fluorimetry; estimate from thermal shift): 6200 ± 1200 nM
[Co+2] — relative specific activity (uncharacterized protein (Bacteroides thetaiotaomicron, UniProt Q8A4G9); phosphatase activity, activator, phosphate release; 5 mM, EDTA-treated enzyme, together with: substrate 25 mM; reference: activity with Mg2+): 0.0081
O=P(O)(O)OC[C@H]1OC(O)[C@H](O)[C@@H](O)[C@@H]1O (some centres unmarked) — phosphatase activity (uncharacterized protein (Bacteroides thetaiotaomicron, UniProt Q8A4G9); activator, phosphate release; concentration not given, together with: Mg2+): active
Fc1ccccc1Cc1nc(-c2nc(C(F)(F)F)n[nH]2)cn2ccnc12 — subjects with reproductive-breast TEAEs (healthy human subjects, both sexes; oral, 10 mg, fed): 7.7%
